# Published values gathered from unrelated publications.
# Parts stem from different laboratories: compare values within a part only. Values joined by “and” are separate records of one study, mostly repeats; a detail may differ.
# UniProt P51956, sequence (whole entry, looked up): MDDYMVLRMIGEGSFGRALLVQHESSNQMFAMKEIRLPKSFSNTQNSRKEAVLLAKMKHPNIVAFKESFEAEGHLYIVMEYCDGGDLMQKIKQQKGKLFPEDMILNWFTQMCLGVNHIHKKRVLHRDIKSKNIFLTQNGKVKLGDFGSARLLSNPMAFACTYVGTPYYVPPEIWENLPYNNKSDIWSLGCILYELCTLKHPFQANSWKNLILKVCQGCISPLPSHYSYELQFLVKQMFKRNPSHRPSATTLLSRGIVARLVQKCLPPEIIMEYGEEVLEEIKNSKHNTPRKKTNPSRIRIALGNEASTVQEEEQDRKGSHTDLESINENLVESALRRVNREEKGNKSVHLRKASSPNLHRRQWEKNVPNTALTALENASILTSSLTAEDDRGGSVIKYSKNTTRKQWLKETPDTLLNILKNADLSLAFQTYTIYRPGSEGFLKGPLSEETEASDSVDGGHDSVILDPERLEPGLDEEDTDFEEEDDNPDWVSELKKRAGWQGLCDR
# UniProt Q8TDC3, sequence (whole entry, looked up): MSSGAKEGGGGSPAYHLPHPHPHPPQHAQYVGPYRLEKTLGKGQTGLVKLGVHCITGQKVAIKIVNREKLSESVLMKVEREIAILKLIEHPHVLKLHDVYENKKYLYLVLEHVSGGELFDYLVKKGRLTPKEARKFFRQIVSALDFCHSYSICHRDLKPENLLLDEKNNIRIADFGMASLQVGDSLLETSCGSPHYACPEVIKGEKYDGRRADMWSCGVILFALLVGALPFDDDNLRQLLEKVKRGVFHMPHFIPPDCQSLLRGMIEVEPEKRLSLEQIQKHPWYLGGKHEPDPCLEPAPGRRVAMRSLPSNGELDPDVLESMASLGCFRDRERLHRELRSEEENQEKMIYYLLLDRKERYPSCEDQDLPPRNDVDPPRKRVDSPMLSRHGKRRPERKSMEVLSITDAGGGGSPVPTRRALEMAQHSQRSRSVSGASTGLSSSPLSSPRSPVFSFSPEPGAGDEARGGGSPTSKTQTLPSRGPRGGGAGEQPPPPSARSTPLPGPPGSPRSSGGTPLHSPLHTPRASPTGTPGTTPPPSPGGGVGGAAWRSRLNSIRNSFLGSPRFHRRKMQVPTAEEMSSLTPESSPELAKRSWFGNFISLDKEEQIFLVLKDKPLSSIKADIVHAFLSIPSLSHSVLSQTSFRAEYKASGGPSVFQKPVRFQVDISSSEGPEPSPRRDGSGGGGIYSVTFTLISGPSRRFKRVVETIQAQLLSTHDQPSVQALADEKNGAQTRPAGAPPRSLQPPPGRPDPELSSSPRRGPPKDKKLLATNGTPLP
# UniProt O75417, sequence (whole entry, unmodified, looked up): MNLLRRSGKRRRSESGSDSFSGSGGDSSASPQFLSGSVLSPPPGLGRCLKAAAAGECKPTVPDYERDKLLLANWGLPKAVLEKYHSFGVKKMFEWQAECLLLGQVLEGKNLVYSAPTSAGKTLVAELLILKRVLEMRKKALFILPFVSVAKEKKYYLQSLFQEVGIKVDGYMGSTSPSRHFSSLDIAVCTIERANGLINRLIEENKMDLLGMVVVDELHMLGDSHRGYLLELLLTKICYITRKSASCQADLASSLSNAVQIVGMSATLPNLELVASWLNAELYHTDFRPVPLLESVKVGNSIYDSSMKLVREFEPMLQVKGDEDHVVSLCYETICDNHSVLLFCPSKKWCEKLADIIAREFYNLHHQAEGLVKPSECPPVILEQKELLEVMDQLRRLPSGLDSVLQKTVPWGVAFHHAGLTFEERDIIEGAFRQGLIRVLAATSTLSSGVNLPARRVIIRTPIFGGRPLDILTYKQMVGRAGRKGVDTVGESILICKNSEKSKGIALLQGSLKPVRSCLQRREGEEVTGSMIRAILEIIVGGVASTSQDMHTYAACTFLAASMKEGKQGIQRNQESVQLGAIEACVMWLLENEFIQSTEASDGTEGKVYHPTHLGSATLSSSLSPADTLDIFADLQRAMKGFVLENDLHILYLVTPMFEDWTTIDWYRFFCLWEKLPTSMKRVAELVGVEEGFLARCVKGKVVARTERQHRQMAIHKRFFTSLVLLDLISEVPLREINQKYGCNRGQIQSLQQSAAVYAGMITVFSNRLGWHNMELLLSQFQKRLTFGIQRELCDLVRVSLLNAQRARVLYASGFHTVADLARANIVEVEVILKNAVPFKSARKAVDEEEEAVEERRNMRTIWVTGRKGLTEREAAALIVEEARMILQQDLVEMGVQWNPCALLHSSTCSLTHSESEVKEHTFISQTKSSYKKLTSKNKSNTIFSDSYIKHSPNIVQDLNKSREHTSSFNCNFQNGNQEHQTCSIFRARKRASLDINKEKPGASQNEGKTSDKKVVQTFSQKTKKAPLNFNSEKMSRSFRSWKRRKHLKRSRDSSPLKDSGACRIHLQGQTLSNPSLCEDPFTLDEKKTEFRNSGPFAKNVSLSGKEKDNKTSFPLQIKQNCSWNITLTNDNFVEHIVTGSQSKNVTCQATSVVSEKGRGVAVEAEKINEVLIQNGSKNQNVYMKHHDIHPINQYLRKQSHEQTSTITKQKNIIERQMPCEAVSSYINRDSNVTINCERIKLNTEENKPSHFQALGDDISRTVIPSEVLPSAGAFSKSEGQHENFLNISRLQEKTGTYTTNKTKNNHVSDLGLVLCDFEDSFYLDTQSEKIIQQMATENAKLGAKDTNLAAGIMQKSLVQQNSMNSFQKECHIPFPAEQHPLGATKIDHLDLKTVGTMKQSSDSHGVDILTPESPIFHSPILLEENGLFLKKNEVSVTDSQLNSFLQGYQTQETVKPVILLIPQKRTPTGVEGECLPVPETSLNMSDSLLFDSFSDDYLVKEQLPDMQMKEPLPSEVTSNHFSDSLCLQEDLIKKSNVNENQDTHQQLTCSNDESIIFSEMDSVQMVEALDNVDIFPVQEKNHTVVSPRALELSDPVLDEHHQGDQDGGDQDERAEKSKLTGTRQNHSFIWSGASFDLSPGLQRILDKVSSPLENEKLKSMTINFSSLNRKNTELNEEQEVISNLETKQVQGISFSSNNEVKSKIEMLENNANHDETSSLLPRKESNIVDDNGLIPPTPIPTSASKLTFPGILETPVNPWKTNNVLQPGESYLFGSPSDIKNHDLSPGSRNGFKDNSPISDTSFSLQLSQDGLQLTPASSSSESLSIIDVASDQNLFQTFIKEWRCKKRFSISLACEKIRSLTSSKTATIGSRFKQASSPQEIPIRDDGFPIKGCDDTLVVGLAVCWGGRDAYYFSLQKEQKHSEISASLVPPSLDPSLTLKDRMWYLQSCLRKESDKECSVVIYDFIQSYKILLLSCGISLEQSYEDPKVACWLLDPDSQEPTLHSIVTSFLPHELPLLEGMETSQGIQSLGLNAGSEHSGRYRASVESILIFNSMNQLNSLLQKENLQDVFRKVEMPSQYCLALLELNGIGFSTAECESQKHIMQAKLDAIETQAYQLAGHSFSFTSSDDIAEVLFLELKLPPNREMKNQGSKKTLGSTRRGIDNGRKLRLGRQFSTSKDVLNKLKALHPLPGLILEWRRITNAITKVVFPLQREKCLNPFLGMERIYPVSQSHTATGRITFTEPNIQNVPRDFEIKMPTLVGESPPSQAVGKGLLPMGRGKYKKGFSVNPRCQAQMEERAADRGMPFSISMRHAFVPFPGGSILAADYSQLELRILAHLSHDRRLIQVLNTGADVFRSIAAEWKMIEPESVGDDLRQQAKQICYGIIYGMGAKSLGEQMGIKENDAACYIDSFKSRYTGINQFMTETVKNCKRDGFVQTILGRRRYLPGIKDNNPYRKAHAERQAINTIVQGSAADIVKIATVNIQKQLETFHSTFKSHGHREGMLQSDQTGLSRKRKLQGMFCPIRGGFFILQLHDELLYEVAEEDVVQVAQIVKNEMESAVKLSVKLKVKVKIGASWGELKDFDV
# UniProt Q16566, sequence (whole entry, looked up): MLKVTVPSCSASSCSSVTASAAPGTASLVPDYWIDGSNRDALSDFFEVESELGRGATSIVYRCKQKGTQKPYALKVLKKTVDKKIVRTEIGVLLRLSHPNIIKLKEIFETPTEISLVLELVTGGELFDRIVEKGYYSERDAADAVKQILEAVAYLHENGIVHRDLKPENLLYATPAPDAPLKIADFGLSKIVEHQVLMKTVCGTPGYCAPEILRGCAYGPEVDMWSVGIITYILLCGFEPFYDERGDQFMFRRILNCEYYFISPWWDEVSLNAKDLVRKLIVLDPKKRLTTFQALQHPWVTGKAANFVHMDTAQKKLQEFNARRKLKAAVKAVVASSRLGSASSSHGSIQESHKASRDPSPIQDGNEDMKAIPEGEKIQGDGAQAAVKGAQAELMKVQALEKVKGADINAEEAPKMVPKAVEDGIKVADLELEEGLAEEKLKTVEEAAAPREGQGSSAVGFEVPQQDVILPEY
# UniProt Q15759, sequence (whole entry, looked up): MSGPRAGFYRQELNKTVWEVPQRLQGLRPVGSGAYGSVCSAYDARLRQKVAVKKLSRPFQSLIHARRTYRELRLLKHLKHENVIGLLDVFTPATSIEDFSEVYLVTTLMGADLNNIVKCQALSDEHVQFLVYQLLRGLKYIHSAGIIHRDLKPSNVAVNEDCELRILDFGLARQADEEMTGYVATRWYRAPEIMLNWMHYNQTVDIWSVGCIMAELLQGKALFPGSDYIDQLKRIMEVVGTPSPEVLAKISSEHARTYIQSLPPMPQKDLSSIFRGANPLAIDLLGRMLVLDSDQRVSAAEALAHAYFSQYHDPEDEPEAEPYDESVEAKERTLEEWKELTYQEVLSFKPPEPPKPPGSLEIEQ
# UniProt P28482, sequence (whole entry, looked up): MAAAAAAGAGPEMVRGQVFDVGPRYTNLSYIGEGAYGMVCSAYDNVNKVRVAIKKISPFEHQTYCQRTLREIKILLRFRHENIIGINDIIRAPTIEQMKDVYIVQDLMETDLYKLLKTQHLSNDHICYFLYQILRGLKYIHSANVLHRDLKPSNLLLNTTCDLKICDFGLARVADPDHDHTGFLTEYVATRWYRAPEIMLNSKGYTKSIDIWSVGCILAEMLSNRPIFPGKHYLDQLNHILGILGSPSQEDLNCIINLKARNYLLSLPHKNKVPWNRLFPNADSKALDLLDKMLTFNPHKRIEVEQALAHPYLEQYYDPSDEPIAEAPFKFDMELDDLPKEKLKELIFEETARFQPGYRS

# Study 1
# Cell line: HaCaT
# Concentration: 100 µM
# Time: 18 h
SMILES,viability
O=C(/C=C/c1cccc(S(=O)(=O)Nc2ccccc2)c1)NO,17.7%
CCOc1nc2cccc(C(=O)O)c2n1Cc1ccc(-c2ccccc2-c2nnn[nH]2)cc1,113%
COc1nc(C)nc(Cl)c1N=C1NCCN1,119%

# Study 2
# Species: mouse
# Sample: microsomes or S9
# Concentration: 2 µM
# Time: 0.5 h
Compound,remaining compound
Cc1ccc(S(=O)(=O)N2c3c(c4ccc(Br)cc4n3C)CC=CC2c2ccccc2)cc1 (stereo not drawn),62.8%
O=c1ccn(-c2ccc(Cl)c(-c3ccc(Cl)cc3)c2)[nH]1,43.3%
O=C(CCn1c(Cc2ccccc2F)nc2cc(Cl)c(Cl)cc21)NCCN1CCOCC1,0.279%
Cc1cc(C(C)(C)c2cc(C)c(N)c(C)c2)cc(C)c1N,87.3%

# Study 3
# Compound: CCOC(=O)c1cc2cc(-c3cc(C(=O)NCc4ccc(C(=O)O)cc4)nn3C)ccc2[nH]1
# Observed: cell-free assay
# Technique: competition with immobilised ligand
# Concentration: 0.1 µM
target,remaining binding
"MAK (Homo sapiens, UniProt P20794)",100%
"ANKK1 (Homo sapiens, UniProt Q8NFD2)",100%
"MAP3K3 (Homo sapiens, UniProt Q99759)",94%
"PIK3CA (Homo sapiens, UniProt P42336, E545K)",100%
"BRSK1 (Homo sapiens, UniProt Q8TDC3)",100%
"STK4 (Homo sapiens, UniProt Q13043)",100%
"TSSK1B (Homo sapiens, UniProt Q9BXA7)",100%

# Study 4
# Structure (SMILES): Cn1cc(/C=C2\C(=O)Nc3ccc(S(N)(=O)=O)cc32)c2ccccc21
# Observed: enzyme activity
# Mode: inhibitor
# Concentration: 0.5 µM
# Baseline: control
target,remaining activity [%]
"AKT2 (Homo sapiens, UniProt P31751)",88.6
"MAPK14 (Homo sapiens, UniProt Q16539)",123
"MAP2K1 (Homo sapiens, UniProt Q02750)",63.6
"NEK3 (Homo sapiens, UniProt P51956)",66.2
"MET (Homo sapiens, UniProt P08581)",84.2
"MAPK11 (Homo sapiens, UniProt Q15759)",93.8
"MAPK1 (Homo sapiens, UniProt P28482)",98.2
"CLK3 (Homo sapiens, UniProt P49761)",81.4
"CAMK4 (Homo sapiens, UniProt Q16566)",96.4
"Myosin-IIIb (MYO3B, Homo sapiens, UniProt Q8WXR4)",74.6
"PAK3 (Homo sapiens, UniProt O75914)",93.8
"CDC42BPB (Homo sapiens, UniProt Q9Y5S2)",114
"DDR2 (Homo sapiens, UniProt Q16832)",100
"CLK4 (Homo sapiens, UniProt Q9HAZ1)",42.6

# Mixed results
Compound,target or system,assay,test system,conditions,scale,measurement,result
O=C(O)C1=CC(=C(c2ccc(O)c(C(=O)O)c2)c2ccc(O)c(C(=O)O)c2)C=CC1=O,"DNA polymerase theta, ATPase domain (POLQ, Homo sapiens, UniProt O75417)","ATPase activity, inhibitor, ADP-Glo luminescence",,"77 µM, mean of duplicates",,remaining activity,5.88%
COc1ccc(-c2c(Nc3ccccn3)[nH]c3c(C4=CCCCC4)c(-c4ccccc4)nn3c2=O)cc1,,,"human, plasma","oral, 50 mg once daily, cycle 1",baseline: trough concentration,swing,1.02 and 0.534 and 0.495

# For quick reference, copied from above (study 3):
target,remaining binding
"STK4 (Homo sapiens, UniProt Q13043)",100%
"ANKK1 (Homo sapiens, UniProt Q8NFD2)",100%
"MAK (Homo sapiens, UniProt P20794)",100%
"MAP3K3 (Homo sapiens, UniProt Q99759)",94%
"BRSK1 (Homo sapiens, UniProt Q8TDC3)",100%
